Assay results pooled from the literature.
Each line is one published result; not all experiments were run side by side. ± marks the error that the study gave.

`Cc1cc(Oc2nc(N3CC[C@@H](c4ccncc4)C3)ncc2F)[nH]n1` has an IC50 of 40.7 µM (ACHN; cell proliferation; kidney cancer).
For `CC(C)(C)C(=O)OCOP(=O)(OCOC(=O)C(C)(C)C)C1CCCN(O)C1=O` (stereo not drawn), the log TGI was > -4 log M (DU-145).
`CNC(=S)N/N=C/c1ccc(OCc2ccccc2)cc1`: “catalase activity (OD450)” 0.029 a.u. (IMR-32; 100 µg/mL, 24 h; higher = more activity).
With `C[C@@H]1O[C@H]2O[C@@H]3C4(O)C(=O)c5cccc(O)c5C(=O)C4(O)O[C@]3(C)[C@]21O` (stereo partly drawn) the selectivity index was 0.57 (A549 and Vero; MTT; relative to: CC50 Vero over EC50 A549).
`CSCC[C@H](NC(=O)[C@@H](NC(=O)[C@H](CCC(N)=O)NC(=O)[C@H](CO)NC(=O)[C@@H](N)C(C)C)[C@@H](C)O)C(=O)N[C@@H](CCCNC(=N)N)C(=O)N[C@@H](CCC(N)=O)C(=O)N[C@H](C(=O)N[C@@H](C)C(=O)N[C@H](C(=O)N1CCC[C@H]1C(=O)N[C@@H](CC(C)C)C(=O)N[C@@H](CC(C)C)C(=O)N[C@@H](Cc1c[nH]c2ccccc12)C(=O)N[C@@H](Cc1ccccc1)C(=O)N[C@@H](Cc1c[nH]c2ccccc12)C(=O)N[C@H](C(=O)NCC(=O)N[C@@H](CO)C(=O)N[C@@H](CC(C)C)C(=O)NCCOCCOCCOCCOCCOCCOCCOCCOCCOCCOCCOCCOCCC(=O)N[C@@H](CS)C(N)=O)[C@@H](C)O)C(C)C)[C@@H](C)O` gave a selectivity ratio of 1.6 ± 0.55 (HCC95; phage binding; relative to: targeting over control phage).
`O=C(C[Se]C(=O)c1ccc2ccccc2c1)Nc1cccc(C(F)(F)F)c1` gave a CC50 of 10.6 µM (NCI60 leukaemia subpanel; NCI60 five-dose screen).
`CC(=O)NCSC[C@H](NC(=O)[C@@H]1CCCN1C(=O)[C@H](C)NC(=O)[C@@H](NC(=O)CNC(=O)[C@@H](NC(=O)[C@H](Cc1c[nH]c2ccccc12)NC(=O)[C@H](C)NC(=O)CNC(=O)[C@H](CO)NC(=O)[C@H](C)NC(=O)[C@@H]1CCCN1C(=O)[C@H](Cc1c[nH]c2ccccc12)NC(=O)[C@H](C)NC(=O)[C@H](C)NC(=O)[C@@H](N)Cc1ccc(O)cc1)[C@@H](C)O)[C@@H](C)O)C(=O)N[C@@H](CO)C(=O)N[C@@H](C)C(=O)NCC(=O)N[C@H](C(=O)NCCOCCOCCOCCOCCOCCOCCOCCOCCOCCOCCOCCOCCC(=O)N[C@@H](CS)C(N)=O)[C@@H](C)O` gave a selectivity ratio of 83 ± 17 (H1299 lung large cell carcinoma; cell binding, phage binding, measured: output/input phage; 10 min, 37 °C; relative to: control phage).
With `CSCC[C@H](N)C(=O)N[C@@H](C)C(=O)N[C@@H](Cc1c[nH]c2ccccc12)C(=O)N[C@@H](Cc1c[nH]cn1)C(=O)N[C@@H](CC(=O)O)C(=O)N[C@@H](CC(=O)O)C(=O)N[C@@H](CCC(=O)O)C(=O)N[C@@H](CCC(=O)O)C(=O)N[C@@H](Cc1ccccc1)C(=O)N[C@@H](C)C(=O)N[C@@H](CCCNC(=N)N)C(=O)N[C@@H](CCCNC(=N)N)C(=O)N[C@@H](CCCNC(=N)N)C(=O)N[C@@H](CCCNC(=N)N)C(=O)NCCCCCC(=O)NCCCCC(NC(=O)CCCCCNC(=O)[C@H](CCCNC(=N)N)NC(=O)[C@H](CCCNC(=N)N)NC(=O)[C@H](CCCNC(=N)N)NC(=O)[C@H](CCCNC(=N)N)NC(=O)[C@H](C)NC(=O)[C@H](Cc1ccccc1)NC(=O)[C@H](CCC(=O)O)NC(=O)[C@H](CCC(=O)O)NC(=O)[C@H](CC(=O)O)NC(=O)[C@H](CC(=O)O)NC(=O)[C@H](Cc1c[nH]cn1)NC(=O)[C@H](Cc1c[nH]c2ccccc12)NC(=O)[C@H](C)NC(=O)[C@@H](N)CCSC)C(=O)NCCCCC(NC(=O)C(CCCCNC(=O)CCCCCNC(=O)[C@H](CCCNC(=N)N)NC(=O)[C@H](CCCNC(=N)N)NC(=O)[C@H](CCCNC(=N)N)NC(=O)[C@H](CCCNC(=N)N)NC(=O)[C@H](C)NC(=O)[C@H](Cc1ccccc1)NC(=O)[C@H](CCC(=O)O)NC(=O)[C@H](CCC(=O)O)NC(=O)[C@H](CC(=O)O)NC(=O)[C@H](CC(=O)O)NC(=O)[C@H](Cc1c[nH]cn1)NC(=O)[C@H](Cc1c[nH]c2ccccc12)NC(=O)[C@H](C)NC(=O)[C@@H](N)CCSC)NC(=O)CCCCCNC(=O)[C@H](CCCNC(=N)N)NC(=O)[C@H](CCCNC(=N)N)NC(=O)[C@H](CCCNC(=N)N)NC(=O)[C@H](CCCNC(=N)N)NC(=O)[C@H](C)NC(=O)[C@H](Cc1ccccc1)NC(=O)[C@H](CCC(=O)O)NC(=O)[C@H](CCC(=O)O)NC(=O)[C@H](CC(=O)O)NC(=O)[C@H](CC(=O)O)NC(=O)[C@H](Cc1c[nH]cn1)NC(=O)[C@H](Cc1c[nH]c2ccccc12)NC(=O)[C@H](C)NC(=O)[C@@H](N)CCSC)C(N)=O` (stereo partly drawn) the osteoclastogenesis was 23.4% (RAW264.7; 3.0 µM, 5 days; relative to: control).
The GI50 of `O=C(C[Se]C(=O)c1ccco1)Nc1cccc(C(F)(F)F)c1` is reported as 3.13 µM (NCI60 melanoma subpanel; cell growth, inhibitor; five-dose).

For quick reference, copied from above:
`CSCC[C@H](NC(=O)[C@@H](NC(=O)[C@H](CCC(N)=O)NC(=O)[C@H](CO)NC(=O)[C@@H](N)C(C)C)[C@@H](C)O)C(=O)N[C@@H](CCCNC(=N)N)C(=O)N[C@@H](CCC(N)=O)C(=O)N[C@H](C(=O)N[C@@H](C)C(=O)N[C@H](C(=O)N1CCC[C@H]1C(=O)N[C@@H](CC(C)C)C(=O)N[C@@H](CC(C)C)C(=O)N[C@@H](Cc1c[nH]c2ccccc12)C(=O)N[C@@H](Cc1ccccc1)C(=O)N[C@@H](Cc1c[nH]c2ccccc12)C(=O)N[C@H](C(=O)NCC(=O)N[C@@H](CO)C(=O)N[C@@H](CC(C)C)C(=O)NCCOCCOCCOCCOCCOCCOCCOCCOCCOCCOCCOCCOCCC(=O)N[C@@H](CS)C(N)=O)[C@@H](C)O)C(C)C)[C@@H](C)O` gave a selectivity ratio of 1.6 ± 0.55 (HCC95; phage binding; relative to: targeting over control phage).
